Experimental data pooled from the literature.
A part holds a random share of what one study measured.

Set 1 — technique: RNA Bind-n-Seq; molecule type: RNA; sample: in vitro; tested at: 365 nM; relative to: no-protein control; direction: higher = stronger binding
Target: RNA binding protein fox-1 homolog 2, RRM domain, GST-SBP tag (RBFOX2, Homo sapiens, UniProt O43251-10, residues 100-194)
Setting: natural RNA segment, single round, ends assumed
Shared flanks, not repeated: GGGAGUUCUACAGUCCGACGAUC … UGGAAUUCUCGGGUGCCAA
Residues (chain): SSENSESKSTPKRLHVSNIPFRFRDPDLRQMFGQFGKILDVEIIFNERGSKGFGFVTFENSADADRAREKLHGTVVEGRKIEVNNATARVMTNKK
`UUAUGUGUUCAUUGAAUUUGACUGACAUAGUUAAAAACUUAAGGUUUAUUUUAGACUUUCAAGGAAACAAAAGACUUUAGAGUCCUCUCUCUGUAAUUCUGCCCCACUCA`: “RBNS enrichment (R)” 0.54.
Under “RBNS enrichment (R)”, `GCUGUCUGCCAGGUCACCACUCUGAUACCCAGCGUUCUCUGGUUGCUCUCUGUUUCCAGUGAUUAAACACCCAUAACCAACGUUGCUGUCUGCUGCCACUGACAGUCCAG` is recorded as 0.283.
`GAGAGGGCUCUGAAAGGUCCACAGAGUUUGACAGACACGAAAGCAACCCAUUGCCCCGUUGACCUGACCUGGAAGAAGACUGUCAGCAAAAGGAAAAUACCAGAAUAUCU`: “RBNS enrichment (R)” 0.244.
`AUUAUCAGGAGAACCCAAGCUGUCUCUGGAUUCGACACCCUUUAAGACAAAUACCUUGGCUCGGGAGGAGUGGGAACAGGGAGAGACAAAAACCACCACUUCCUGGGGAG` — result for “RBNS enrichment (R)”: 0.327.
For `UUUCACAGAAAUAGUCCUUGUCAUUACAUUGUUCACUCAUGUGUUUGUACAUUUUUGUAUGUUAAUUUAUGAAUGAUUUUUUCAGUAAAAAAUACAUAUUCAAUAACCAA`, “RBNS enrichment (R)” read 0.456.
Under “RBNS enrichment (R)”, `UCUCUUCUGCAAAUGAACAAAACAAAACAUAAAGGUGGUUGUUGUAAGCUAAGUAUAUUUGUGGAGGGAGAAGAUAUGUUUUUAUAAAGUUAUUCUAAUGGCUAUUUGUG` is recorded as 0.768.
`GUGACUAUAUAUAAUUGGGGAGAAGAAGGGAAGAGAGCAGCAGUAGCUUAAGCCUGUUGCUAAGAAAUUUAAUUUCUUAGCAACUUGUAAUUUAGUUAUCAAUUCAAUAU`: “RBNS enrichment (R)” 0.805.
`GGCAAGAACACCUCGGAGCCACUGCAUUGUUUUGCCAAAAACUUACUGCAGAUUAAGUAAAGAACUUAGAUGCUAAAUUACAUCUAAUUUUGUAUGUUUUUUUAAAUGUG`: “RBNS enrichment (R)” 0.469.

Set 2 — technique: RNA Bind-n-Seq; molecule type: RNA; sample: in vitro; tested at: 20 nM; setting: 6-mer, flanks averaged, single round; with: 150 mM KCl; relative to: input library; direction: higher = stronger binding
Target: TAR DNA-binding protein 43, full length, His tag (TARDBP, Homo sapiens, UniProt Q13148, residues 1-414)
`CCCCGC` — result for “6-mer enrichment (R)”: 0.66.
`GAUAGU` — result for “6-mer enrichment (R)”: 0.824.
`AUACUG` — result for “6-mer enrichment (R)”: 0.645.
`UAUUGA` — result for “6-mer enrichment (R)”: 0.645.
`AUGGUU`: “6-mer enrichment (R)” 0.764.
`ACGGAC`: “6-mer enrichment (R)” 0.924.
`GCGGUG`: “6-mer enrichment (R)” 3.24.
`CGUACU`: “6-mer enrichment (R)” 0.585.
For `GCUCGU`, “6-mer enrichment (R)” read 0.735.
Under “6-mer enrichment (R)”, `CGCGAA` is recorded as 0.844.
`AGCGCA`: “6-mer enrichment (R)” 0.897.
Under “6-mer enrichment (R)”, `GCUGGU` is recorded as 1.26.
Under “6-mer enrichment (R)”, `AAAACC` is recorded as 0.607.
For `UCCUAC`, “6-mer enrichment (R)” read 0.553.
`CCAGCG` — result for “6-mer enrichment (R)”: 1.09.
Under “6-mer enrichment (R)”, `AGCCCA` is recorded as 0.671.
Under “6-mer enrichment (R)”, `CGAUUC` is recorded as 0.563.
For `GUUCAA`, “6-mer enrichment (R)” read 0.621.
For `CGUGAC`, “6-mer enrichment (R)” read 0.796.
`UCCUCU`: “6-mer enrichment (R)” 0.551.
Under “6-mer enrichment (R)”, `GCUUGU` is recorded as 0.815.
For `UUAUCU`, “6-mer enrichment (R)” read 0.563.
`CGAAAG`: “6-mer enrichment (R)” 0.844.
`UGUACC`: “6-mer enrichment (R)” 0.656.

Set 3 — technique: protein binding microarray; molecule type: double-stranded DNA, one strand shown; sample: in vitro; tested at: not given; relative to: not given; direction: higher = stronger binding
Target: Histone acetyltransferase KAT6A, winged helix 2, GST fusion (KAT6A, Homo sapiens, UniProt Q92794, residues 85-181)
Setting: 8-mer, flanks averaged, mean of 2 arrays, mostly near background
Residues (chain): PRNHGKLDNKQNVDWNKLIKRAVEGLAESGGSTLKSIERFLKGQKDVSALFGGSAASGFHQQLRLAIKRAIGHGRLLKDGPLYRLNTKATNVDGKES
The E-score of `CGTCGCGA` is reported as 0.183.
With `CCTAAGCA` the E-score was 0.123.
`CTACTTCA` gave an E-score of -0.03.
The E-score of `CTATGTCA` is reported as 0.121.
With `CGTAGGAC` the E-score was 0.157.
For `ACGTATTA`, the E-score was -0.00364.
`AGTTCAAT` has an E-score of -0.232.
For `CAATTGGG`, the E-score was -0.0227.
`AACGAACG` has an E-score of 0.0725.
`AGGAGCTA` has an E-score of -0.139.
The E-score of `CAGGCACC` is reported as -0.00962.
The E-score of `TTCGGAAA` is reported as 0.185.
With `AATAGTCT` the E-score was -0.172.
`CAGGAGAA` has an E-score of 0.0644.
`ATTGGGTG` gave an E-score of -0.0583.
With `CTTACGTC` the E-score was -0.168.

Set 4 — technique: protein-binding microarray; molecule type: double-stranded DNA, one strand shown; sample: in vitro; tested at: 250 nM; setting: 60-bp whole probe; with: salmon DNA 0.4 mg/ml; relative to: random background probes; direction: higher = stronger binding; shared flanks, not repeated: GCCTAGCAC … GTCTTGATTCGCTTGACGCTGCTG
Target: Interferon regulatory factor 7, full length, phosphomimetic (IRF7, Homo sapiens, UniProt Q92985, residues 1-503, S101K/S471D/S472D/S475D/S476D/S477D/S483D/S484D/S487D)
Chain of UniProt Q92985 (whole entry, unmodified, looked up): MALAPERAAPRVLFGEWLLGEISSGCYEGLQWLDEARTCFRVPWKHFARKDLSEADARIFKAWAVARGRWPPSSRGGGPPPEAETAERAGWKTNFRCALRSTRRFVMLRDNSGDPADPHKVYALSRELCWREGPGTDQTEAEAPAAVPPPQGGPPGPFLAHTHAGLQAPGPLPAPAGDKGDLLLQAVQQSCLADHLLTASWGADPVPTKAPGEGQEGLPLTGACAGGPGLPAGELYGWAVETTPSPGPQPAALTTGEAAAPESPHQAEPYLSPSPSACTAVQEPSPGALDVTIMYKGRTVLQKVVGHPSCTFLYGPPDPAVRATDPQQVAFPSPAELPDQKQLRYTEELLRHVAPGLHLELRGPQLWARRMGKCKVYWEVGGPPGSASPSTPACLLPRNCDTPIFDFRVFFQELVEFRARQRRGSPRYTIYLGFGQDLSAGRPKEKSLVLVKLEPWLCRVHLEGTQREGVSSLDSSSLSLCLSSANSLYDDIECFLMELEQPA
`TGAGAACTGGGGTATCGATTAGTGCTA` has a log fluorescence of -0.2 z-score.
`GAAGATTTCGGGTATCGAGACGTGCTA` gave a log fluorescence of 0.907 z-score.
With `TTCGAACTGGGGTATCGATTAGTGCTA` the log fluorescence was 0.136 z-score.
`TTAGGTTTCGACTTTCGGTTCGTGCTA` gave a log fluorescence of 11.6 z-score.
For `TTAGATTTCGGTCTCGGTTAGTGCTAG`, the log fluorescence was 2.99 z-score.
The log fluorescence of `TTAGATCTCCGTATCGATTAGTGCTAG` is reported as 0.348 z-score.
`TCATTCTTGCATCTGGGACTGTGCTAG` has a log fluorescence of 0.508 z-score.
For `GACGGTTTCCTACTGCTGAGGTGCTAG`, the log fluorescence was 1.42 z-score.
`GACGGACTGGGGTATGGGGACGTGCTA` has a log fluorescence of -0.575 z-score.
With `GACGATCTCAGACTGGGGACGTGCTAG` the log fluorescence was -0.39 z-score.
`TTAGGTTTCCCTATCCTTTAGTGCTAG` has a log fluorescence of 2.08 z-score.
The log fluorescence of `TTAGGACTGCTTCTCCTATAGTGCTAG` is reported as 0.847 z-score.
With `TCAATACTCGTTTACATACTGTGCTAG` the log fluorescence was 1.29 z-score.
The log fluorescence of `TCACAATTCTCTTTTCAACTGTGCTAG` is reported as 0.823 z-score.
`TCATTGGTTGAACATGAACTGTGCTAG` has a log fluorescence of 0.138 z-score.
The log fluorescence of `TTTTTTTTTTTTTTGTATTTGTGCTAG` is reported as 0.79 z-score.
For `TTAGGTTTCGGTTTCGGATAGTGCTAG`, the log fluorescence was 14.9 z-score.
`TTAGAACTTAGACTGGATTAGTGCTAG` gave a log fluorescence of -0.148 z-score.
For `GACGGACTGGACACTGGGGAAGTGCTA`, the log fluorescence was -0.751 z-score.

Set 5 — technique: RNA Bind-n-Seq; molecule type: RNA; sample: in vitro; tested at: 200 nM; setting: whole 134-nt RNA, ends assumed; with: 150 mM LiCl; relative to: input library; direction: higher = stronger binding; library: 7-deaza-guanosine replaces G
Target: Ras GTPase-activating protein-binding protein 1, full length (G3BP1, Homo sapiens, UniProt Q13283)
Chain of UniProt Q13283 (whole entry, looked up): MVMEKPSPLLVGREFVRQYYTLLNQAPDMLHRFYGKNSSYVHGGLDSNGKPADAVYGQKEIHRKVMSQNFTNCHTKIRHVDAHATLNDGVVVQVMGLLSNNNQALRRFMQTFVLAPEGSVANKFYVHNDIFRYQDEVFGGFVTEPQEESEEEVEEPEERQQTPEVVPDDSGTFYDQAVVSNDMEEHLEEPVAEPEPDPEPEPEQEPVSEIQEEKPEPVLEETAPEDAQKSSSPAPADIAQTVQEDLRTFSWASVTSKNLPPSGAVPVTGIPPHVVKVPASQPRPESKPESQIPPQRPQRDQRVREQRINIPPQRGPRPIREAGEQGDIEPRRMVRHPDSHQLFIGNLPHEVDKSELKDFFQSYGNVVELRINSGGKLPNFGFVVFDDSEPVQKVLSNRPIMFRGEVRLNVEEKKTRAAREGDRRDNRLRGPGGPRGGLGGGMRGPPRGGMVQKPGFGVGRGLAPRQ
Shared flanks, not repeated: GGGAGUUCUACAGUCCGACGAUC … UGGAAUUCUCGGGUGUCAAGG
With `UCCUGUGCUACACAUCGUAUGUACCGAAUCGGGGAAAAAAAGGGGAAAGGGGUUUGGGGAAAGUAUUAUGUUACGCCGUUCGGAUCUGCA` the log2 enrichment was 0.00509.
`GUUAAUUCCACCAUCCCCAUCACAGCAGAAGUUUUCAAGAAGCAUGGAGUGUACAACCCCAACAAAAUCUUCGGCGUGACGACCCUGGAC` gave a log2 enrichment of 1.03.
`UGGGAGGUGGAUUUUGUUUAUUUUUUUAGCUCAUUUCCAGGGGUGGGAAUUUUUUUUUCAUAUGUGUCAUGAAUAAAGUUGUUUUUGAAA` gave a log2 enrichment of 0.0842.
The log2 enrichment of `UUAGAUGAGUGACCGAGGAGGUGGCGUUCCUUUGAGGAAAAUUGACAGACUUUUCAACUACAUGUAUUCAACUGCACCAAGACCUCGUGU` is reported as -0.617.
`CACAGACAACACGCACCCACACAGACACGGAGGGAAGGGGUUGGGAUGGGGACAGGGUGCACAGCAGGGCGGGGUAGGACCCCAGCCCCU` gave a log2 enrichment of -0.129.
The log2 enrichment of `CAAGUCCUGUGCUACACAUCGUAUGUACCGAAUCGGUUUUGGUUUUGGGUUUUGGAAAGUAUUAUGUUACGCCGUUCGGAUCUGCACUUC` is reported as -1.02.
For `GUCCUGUGCUACACAUCGUAUGUACCGAAUCGGGAAAAAGGGUUUUUUUGGGAAAGGGAAAGUAUUAUGUUACGCCGUUCGGAUCUGCAC`, the log2 enrichment was -1.7.
For `UCCUGUGCUACACAUCGUAUGUACCGAAUCGGGGCCCCCGGGGCCCCCGGGGCCCCCGGAAAGUAUUAUGUUACGCCGUUCGGAUCUGCA`, the log2 enrichment was 0.432.

A few entries again (set 3):
With `CTTACGTC` the E-score was -0.168.
The E-score of `CGTCGCGA` is reported as 0.183.
`ATTGGGTG` gave an E-score of -0.0583.
`AGGAGCTA` has an E-score of -0.139.
The E-score of `CTATGTCA` is reported as 0.121.
